{"data": "Results collected from several papers", "note": "Numbered parts are unrelated; each lists some results of a single study."}
{"data": "Sample 1", "target": "Prothrombin, mature alpha-thrombin (F2, Homo sapiens, UniProt P00734)", "method": "aptamer microarray, sandwich", "form": "DNA with 2'F-ANA", "sample": "in vitro", "tested at": "200 nM", "setting": "whole 15-mer aptamer, many near background", "with": "Cy3 exosite-II aptamer, 400 nM", "direction": "higher = stronger binding"}
{"Oligonucleotide": "GGTTGGTGTGGTTGG (2'F-ANA at 1 6 9 11 12 13 15)", "mean fluorescence intensity [a.u.]": 192}
{"Oligonucleotide": "GGTTGGTGTGGTTGG (2'F-ANA at 3 4 6 7 8 9 10 11 12 13)", "mean fluorescence intensity [a.u.]": 226}
{"Oligonucleotide": "GGTTGGTGTGGTTGG (2'F-ANA at 1 2 5 6 7 9 10 12 14)", "mean fluorescence intensity [a.u.]": 47.7}
{"Oligonucleotide": "GGTTGGTGTGGTTGG (2'F-ANA at 4 7 8 10 11 12 14 15)", "mean fluorescence intensity [a.u.]": 63.7}
{"data": "Sample 2", "target": "Interferon regulatory factor 7, full length, phosphomimetic (IRF7, Homo sapiens, UniProt Q92985, residues 1-503, S471D/S472D/S475D/S476D/S477D/S483D/S484D/S487D)", "method": "protein-binding microarray", "form": "double-stranded DNA, one strand shown", "sample": "in vitro", "tested at": "2200 nM top", "setting": "60-bp whole probe", "with": "salmon DNA 0.4 mg/ml", "relative to": "random background probes", "direction": "higher = stronger binding", "UniProt Q92985, sequence (whole entry, unmodified, looked up)": "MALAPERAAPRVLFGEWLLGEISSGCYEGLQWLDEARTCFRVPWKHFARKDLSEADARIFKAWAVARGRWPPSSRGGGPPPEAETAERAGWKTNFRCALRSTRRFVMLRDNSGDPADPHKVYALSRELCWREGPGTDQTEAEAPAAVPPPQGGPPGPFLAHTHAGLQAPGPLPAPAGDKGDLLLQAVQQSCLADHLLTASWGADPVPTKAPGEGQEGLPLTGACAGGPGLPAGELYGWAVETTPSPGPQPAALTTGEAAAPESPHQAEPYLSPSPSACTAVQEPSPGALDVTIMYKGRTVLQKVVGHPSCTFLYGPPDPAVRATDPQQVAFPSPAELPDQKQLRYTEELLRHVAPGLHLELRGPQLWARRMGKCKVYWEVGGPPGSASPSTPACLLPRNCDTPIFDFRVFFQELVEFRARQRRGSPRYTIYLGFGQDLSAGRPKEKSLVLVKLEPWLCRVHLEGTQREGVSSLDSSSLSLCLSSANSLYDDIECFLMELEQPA"}
{"Oligonucleotide": "GCCTAGCACAGTGATAACTTTTTTTTTTCGTGCTAGGTCTTGATTCGCTTGACGCTGCTG", "fitted relative affinity": "0.851 z-score"}
{"Oligonucleotide": "GCCTAGCACGACGGTATCCTACGGCTGACGTGCTAGGTCTTGATTCGCTTGACGCTGCTG", "fitted relative affinity": "0.16 z-score"}
{"Oligonucleotide": "GCCTAGCACACTCCTATCCAAGTTCCCCTGGTGCTAGTCTTGATTCGCTTGACGCTGCTG", "fitted relative affinity": "1.33 z-score"}
{"Oligonucleotide": "GCCTAGCACTACGGTTCCCTTTTCCTGACGTGCTAGGTCTTGATTCGCTTGACGCTGCTG", "fitted relative affinity": "2.92 z-score"}
{"data": "Sample 3", "target": "Histone acetyltransferase KAT6A, winged helix 2, GST fusion (KAT6A, Homo sapiens, UniProt Q92794, residues 85-181)", "method": "protein binding microarray", "form": "double-stranded DNA, one strand shown", "sample": "in vitro", "tested at": "not given", "setting": "8-mer, flanks averaged, mean of 2 arrays, mostly near background", "relative to": "not given", "direction": "higher = stronger binding", "Target sequence (chain)": "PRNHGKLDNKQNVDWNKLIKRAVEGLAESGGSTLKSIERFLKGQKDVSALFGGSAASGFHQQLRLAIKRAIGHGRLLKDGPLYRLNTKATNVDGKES"}
{"Oligonucleotide": "AGCTAACA", "E-score": -0.0284}
{"Oligonucleotide": "AGGAAACT", "E-score": -0.0892}
{"Oligonucleotide": "TCCATGAA", "E-score": 0.00242}
{"Oligonucleotide": "AACGAGGG", "E-score": 0.0168}
{"Oligonucleotide": "ATTGCTCA", "E-score": 0.0882}
{"data": "Other studies, line by line"}
{"Substance": "PhoQ, residues 284 288 289 292 302 303 ASTSDA", "target": "PhoP, residues 12 14 15 18 19 AGCRL (Escherichia coli, UniProt P23836)", "assay": "Sort-seq, measured: YFP reporter", "test system": "E. coli", "setting": "PhoQ-PhoP variant library, with: 10 µM Mg2+", "scale": "relative to: high Mg2+ state, higher = stronger signaling", "quantity": "fold induction", "value": 1.92}
{"note": "Repeated from above (sample 2):"}
{"Oligonucleotide": "GCCTAGCACTACGGTTCCCTTTTCCTGACGTGCTAGGTCTTGATTCGCTTGACGCTGCTG", "fitted relative affinity": "2.92 z-score"}
